Measurements gathered from unrelated publications.
Cell line: MCF7
Effect on: cell growth or viability

SMILES | method | time | GI50
CC(=C(c1ccc(O)cc1)c1ccc(Cl)cc1)c1ccc(Cl)cc1 | SRB |  | 820 nM
COc1ccc(NC(=O)C2C(=O)C(c3ccccc3)c3ccc4c(c32)C(=O)c2ccccc2C4=O)cc1 (stereo not drawn) |  |  | 23 µg/mL
CC(C)C1=C(O)C(=O)C2=C(C1=O)[C@H](O)[C@@H](O)[C@H]1C(C)(C)CCC[C@]21C | SRB | 48 h | 26000 nM
CC(=O)N[C@@H](Cc1ccc(O)cc1)CN(CC(=O)N[C@@H](CCCCN)CN(CC(=O)N[C@@H](Cc1ccccc1)CN(CC(=O)N[C@H]1CCCCNc2c(F)c(F)c(c(F)c2F)S(=O)(=O)c2c(F)c(F)c(c(F)c2F)NCCCC[C@@H](CN(CC(=O)N[C@@H](C)CN(CC(N)=O)S(C)(=O)=O)S(C)(=O)=O)NC(=O)CN(S(=O)(=O)CC(C)C)C[C@H](Cc2ccccc2)NC(=O)CN(S(=O)(=O)CCN)C1)S(=O)(=O)c1ccc(Cl)cc1)S(=O)(=O)CCN)S(C)(=O)=O | CCK-8 | 72 h | 11000 nM
CC(Cc1ccc(Cl)cc1)=C(c1ccc(Cl)cc1)c1ccc(OCCN(C)C)cc1 | SRB |  | 1700 nM
COc1cc([C@@H]2c3cc4c(cc3[C@@H](OCc3cc(-c5cc(C#N)cc(C#N)c5)no3)[C@H]3COC(=O)C23)OCO4)cc(OC)c1OC (stereo partly drawn) | SRB | 48 h | 120 nM
Cc1ccc(NC(=O)C2C(=O)C(c3ccccc3)c3ccc4c(c32)C(=O)c2ccccc2C4=O)cc1 (stereo not drawn) |  |  | 45.9 µg/mL
COc1cc([C@@H]2c3cc4c(cc3[C@@H](OCc3cc(-c5ccc(C#N)cc5)no3)[C@H]3COC(=O)C23)OCO4)cc(OC)c1OC (stereo partly drawn) | SRB | 48 h | 420 nM
O=C1c2ccccc2C(=O)c2c1ccc1c2C(C(=O)Nc2ccc(Cl)cc2)C(=O)C1c1ccccc1 (stereo not drawn) |  |  | 45.2 µg/mL
CC(=O)N[C@@H](Cc1ccc(O)cc1)CN(CC(=O)N[C@@H](CCCCN)CN(CC(=O)N[C@@H](Cc1ccccc1)CN(CC(=O)N[C@H]1CCCCNc2c(F)c(F)c(c(F)c2F)S(=O)(=O)c2c(F)c(F)c(c(F)c2F)NCCCC[C@@H](CN(CC(=O)N[C@@H](C)CN(CC(N)=O)S(C)(=O)=O)S(C)(=O)=O)NC(=O)CN(S(=O)(=O)CC(C)C)C[C@H](Cc2ccccc2)NC(=O)CN(S(=O)(=O)CCN)C1)S(=O)(=O)CC(C)C)S(=O)(=O)CCN)S(C)(=O)=O | CCK-8 | 72 h | 10100 nM
O=C1c2ccccc2C(=O)c2c1ccc1c2C(C(=O)Nc2ccc(Br)cc2)C(=O)C1c1ccccc1 (stereo not drawn) |  |  | 35.8 µg/mL
CC(=O)c1cccc(NC2C(N)C(NC(=O)N(C)C)(C(C)O)C(O)C2(O)COC(=O)c2c(C)cccc2O)c1 (stereo not drawn) | SRB |  | 51 nM
CC/C=C\C/C=C\C/C=C\C/C=C\C/C=C\C/C=C\CCC(=O)Nc1ccn(C2OC(CO)C(O)C2(F)F)c(=O)n1 (stereo not drawn) | SRB |  | < 10 nM
COC(=O)N[C@H]1CC[C@@H](Nc2cc(NCc3ccccc3F)n3ncc(C(C)C)c3n2)CC1 | SRB |  | 4200 nM
CC(C)C[C@@H](NC(=O)[C@H](C)NC(=O)CNC(=O)[C@@H](NC=O)C(C)C)C(=O)N[C@@H](C)C(=O)N[C@@H](C(=O)N[C@H](C(=O)N[C@@H](C(=O)N[C@@H](Cc1c[nH]c2ccccc12)C(=O)N[C@H](CC(C)C)C(=O)N[C@@H](Cc1c[nH]c2ccccc12)C(=O)N[C@H](CC(C)C)C(=O)N[C@@H](Cc1c[nH]c2ccccc12)C(=O)N[C@H](CC(C)C)C(=O)N[C@@H](Cc1c[nH]c2ccccc12)C(=O)NCCO)C(C)C)C(C)C)C(C)C | SRB | 48 h | 42 nM

A few entries again:
SMILES | method | time | GI50
CC(C)C1=C(O)C(=O)C2=C(C1=O)[C@H](O)[C@@H](O)[C@H]1C(C)(C)CCC[C@]21C | SRB | 48 h | 26000 nM
